Experimental data pooled from the literature.
Every numbered part comes from another study and shows a few of its results, in no order. Substitutions count along the parent as printed.
Chain of UniProt Q96RR4 (whole entry, looked up): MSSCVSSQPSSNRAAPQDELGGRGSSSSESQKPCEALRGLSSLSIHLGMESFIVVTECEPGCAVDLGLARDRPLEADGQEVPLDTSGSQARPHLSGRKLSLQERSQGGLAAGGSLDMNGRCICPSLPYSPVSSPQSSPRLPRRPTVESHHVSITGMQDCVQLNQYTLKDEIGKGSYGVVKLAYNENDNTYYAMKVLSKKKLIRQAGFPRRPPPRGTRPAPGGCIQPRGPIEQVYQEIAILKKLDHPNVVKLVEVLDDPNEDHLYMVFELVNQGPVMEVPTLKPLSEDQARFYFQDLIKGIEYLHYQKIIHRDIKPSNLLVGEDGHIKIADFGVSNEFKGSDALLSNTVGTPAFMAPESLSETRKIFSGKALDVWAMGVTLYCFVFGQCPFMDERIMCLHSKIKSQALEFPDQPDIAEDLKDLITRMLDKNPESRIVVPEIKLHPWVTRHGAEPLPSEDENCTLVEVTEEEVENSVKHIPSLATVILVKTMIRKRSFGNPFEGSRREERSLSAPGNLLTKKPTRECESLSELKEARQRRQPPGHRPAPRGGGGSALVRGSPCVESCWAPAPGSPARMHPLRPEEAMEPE
Chain of UniProt Q16513 (whole entry, looked up): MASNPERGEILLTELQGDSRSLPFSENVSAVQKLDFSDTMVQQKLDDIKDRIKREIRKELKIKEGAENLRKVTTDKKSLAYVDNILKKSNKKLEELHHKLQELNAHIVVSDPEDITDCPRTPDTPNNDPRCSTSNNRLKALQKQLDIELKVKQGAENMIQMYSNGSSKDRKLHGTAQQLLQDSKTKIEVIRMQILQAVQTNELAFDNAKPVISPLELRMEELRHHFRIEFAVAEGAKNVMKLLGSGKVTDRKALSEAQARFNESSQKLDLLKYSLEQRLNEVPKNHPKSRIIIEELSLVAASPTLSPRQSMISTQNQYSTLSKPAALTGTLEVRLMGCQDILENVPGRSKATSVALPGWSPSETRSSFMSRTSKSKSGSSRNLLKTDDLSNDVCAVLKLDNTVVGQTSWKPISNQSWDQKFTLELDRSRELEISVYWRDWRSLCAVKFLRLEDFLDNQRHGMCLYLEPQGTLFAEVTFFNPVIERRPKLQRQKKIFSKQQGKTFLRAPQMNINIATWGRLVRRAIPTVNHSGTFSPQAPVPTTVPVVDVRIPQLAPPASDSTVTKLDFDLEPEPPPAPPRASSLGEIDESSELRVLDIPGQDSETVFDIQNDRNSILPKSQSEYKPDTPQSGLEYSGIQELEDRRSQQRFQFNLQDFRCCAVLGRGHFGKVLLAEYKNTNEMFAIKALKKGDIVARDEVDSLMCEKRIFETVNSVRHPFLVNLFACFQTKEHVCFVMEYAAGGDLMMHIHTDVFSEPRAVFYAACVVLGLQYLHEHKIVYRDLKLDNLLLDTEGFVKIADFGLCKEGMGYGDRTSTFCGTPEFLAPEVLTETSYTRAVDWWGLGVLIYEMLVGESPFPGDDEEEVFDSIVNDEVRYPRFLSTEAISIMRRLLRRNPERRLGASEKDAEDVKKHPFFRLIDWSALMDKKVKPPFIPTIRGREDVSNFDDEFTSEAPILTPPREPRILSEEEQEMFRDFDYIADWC
Chain of UniProt P57059 (whole entry, looked up): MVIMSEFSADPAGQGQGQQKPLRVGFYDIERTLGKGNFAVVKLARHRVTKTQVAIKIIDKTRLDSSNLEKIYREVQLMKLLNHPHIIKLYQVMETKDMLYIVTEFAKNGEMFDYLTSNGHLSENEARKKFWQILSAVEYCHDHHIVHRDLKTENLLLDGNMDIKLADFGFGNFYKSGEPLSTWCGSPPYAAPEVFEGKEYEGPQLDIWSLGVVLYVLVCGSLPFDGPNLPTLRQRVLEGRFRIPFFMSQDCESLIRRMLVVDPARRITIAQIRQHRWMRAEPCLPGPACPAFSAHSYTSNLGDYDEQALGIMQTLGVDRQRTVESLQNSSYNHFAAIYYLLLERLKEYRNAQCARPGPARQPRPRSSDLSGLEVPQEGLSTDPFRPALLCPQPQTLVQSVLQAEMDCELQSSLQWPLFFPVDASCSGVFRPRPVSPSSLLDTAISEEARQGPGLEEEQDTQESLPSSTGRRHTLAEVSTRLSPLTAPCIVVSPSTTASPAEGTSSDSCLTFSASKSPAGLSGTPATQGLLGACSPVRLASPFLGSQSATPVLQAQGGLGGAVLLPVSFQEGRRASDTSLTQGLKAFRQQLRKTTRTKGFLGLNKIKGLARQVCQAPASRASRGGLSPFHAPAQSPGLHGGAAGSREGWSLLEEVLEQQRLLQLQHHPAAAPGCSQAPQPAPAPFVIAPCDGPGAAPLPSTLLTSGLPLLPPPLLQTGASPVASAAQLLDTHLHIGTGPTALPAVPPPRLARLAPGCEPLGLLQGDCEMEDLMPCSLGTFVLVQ
Chain of UniProt P07948 (whole entry, looked up): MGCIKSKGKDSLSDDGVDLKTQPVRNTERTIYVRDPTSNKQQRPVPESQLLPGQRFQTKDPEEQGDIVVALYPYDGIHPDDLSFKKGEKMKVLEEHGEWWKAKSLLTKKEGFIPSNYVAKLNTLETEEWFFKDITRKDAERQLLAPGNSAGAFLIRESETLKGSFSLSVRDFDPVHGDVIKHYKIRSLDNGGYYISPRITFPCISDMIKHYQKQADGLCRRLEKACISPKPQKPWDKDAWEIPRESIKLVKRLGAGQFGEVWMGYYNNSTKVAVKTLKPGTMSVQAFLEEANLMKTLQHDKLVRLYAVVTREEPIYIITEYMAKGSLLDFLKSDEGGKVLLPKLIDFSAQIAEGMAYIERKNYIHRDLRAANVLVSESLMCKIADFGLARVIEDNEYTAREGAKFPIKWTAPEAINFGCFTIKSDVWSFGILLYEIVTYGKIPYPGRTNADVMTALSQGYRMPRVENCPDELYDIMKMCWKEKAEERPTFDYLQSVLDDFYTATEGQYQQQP

Series 1
Target: CEBPD, bZIP domain (human)
Technique: DHFR protein complementation
Matrix: yeast
Notes: single substitutions, most at no-binding floor
Relative to: wild-type JUN-FOS pair
Reading: higher = stronger binding
Endpoint: binding fitness
Starting sequence: JUN, bZIP domain (human); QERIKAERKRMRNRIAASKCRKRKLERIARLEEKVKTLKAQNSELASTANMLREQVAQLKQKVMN; partner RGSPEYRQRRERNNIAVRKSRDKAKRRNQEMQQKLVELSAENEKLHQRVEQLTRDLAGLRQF
L59P: -1.37 natural log
R53C: -1.28 natural log
A40W: -1.31 natural log
L38M: -1.49 natural log
I28C: -1.34 natural log
S47G: -1.3 natural log
L45K: -1.35 natural log
A49K: -1.47 natural log

Series 2
Target: Vascular endothelial growth factor receptor 1 (FLT1, Homo sapiens, UniProt P17948)
Chain of UniProt P17948 (whole entry, looked up): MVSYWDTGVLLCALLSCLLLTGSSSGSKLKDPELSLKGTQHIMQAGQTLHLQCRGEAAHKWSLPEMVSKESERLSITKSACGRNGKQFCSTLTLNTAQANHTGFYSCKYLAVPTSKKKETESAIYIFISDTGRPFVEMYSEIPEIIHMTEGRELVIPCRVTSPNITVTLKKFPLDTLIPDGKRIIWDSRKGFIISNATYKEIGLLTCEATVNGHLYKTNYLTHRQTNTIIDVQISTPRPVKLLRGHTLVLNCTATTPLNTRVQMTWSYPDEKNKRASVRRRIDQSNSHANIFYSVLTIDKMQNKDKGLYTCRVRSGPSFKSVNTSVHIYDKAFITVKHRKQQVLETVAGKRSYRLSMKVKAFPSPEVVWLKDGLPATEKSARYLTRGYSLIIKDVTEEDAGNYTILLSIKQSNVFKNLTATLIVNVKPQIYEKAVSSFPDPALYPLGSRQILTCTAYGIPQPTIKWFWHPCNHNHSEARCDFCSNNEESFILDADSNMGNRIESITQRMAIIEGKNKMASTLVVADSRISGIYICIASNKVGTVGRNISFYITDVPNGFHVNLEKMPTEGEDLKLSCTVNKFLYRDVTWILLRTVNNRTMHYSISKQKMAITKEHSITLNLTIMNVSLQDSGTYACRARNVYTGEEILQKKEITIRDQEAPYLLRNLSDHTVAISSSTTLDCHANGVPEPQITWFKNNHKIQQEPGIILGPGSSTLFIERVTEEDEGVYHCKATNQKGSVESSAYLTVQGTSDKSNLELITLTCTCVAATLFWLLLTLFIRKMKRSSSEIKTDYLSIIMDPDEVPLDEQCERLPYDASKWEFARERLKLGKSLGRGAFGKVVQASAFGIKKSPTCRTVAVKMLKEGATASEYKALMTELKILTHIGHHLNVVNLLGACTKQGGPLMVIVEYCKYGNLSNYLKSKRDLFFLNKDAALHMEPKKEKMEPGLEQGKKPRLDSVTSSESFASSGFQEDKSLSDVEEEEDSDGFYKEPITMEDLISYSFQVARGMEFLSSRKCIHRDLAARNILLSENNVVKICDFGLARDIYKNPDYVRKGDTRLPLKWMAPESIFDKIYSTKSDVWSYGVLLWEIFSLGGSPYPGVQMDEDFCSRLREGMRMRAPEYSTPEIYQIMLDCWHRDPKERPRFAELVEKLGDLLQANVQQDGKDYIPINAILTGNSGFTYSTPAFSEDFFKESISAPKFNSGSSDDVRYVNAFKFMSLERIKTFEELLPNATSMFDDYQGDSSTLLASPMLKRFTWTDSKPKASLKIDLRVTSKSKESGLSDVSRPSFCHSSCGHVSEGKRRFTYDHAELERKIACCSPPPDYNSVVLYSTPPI
Observed: enzyme activity
Action: inhibitor
Concentration: 0.5 µM
Relative to: control
Endpoint: remaining activity
COc1ccc(CNC(=O)Nc2ncc([N+](=O)[O-])s2)cc1: 96.8%
Cn1sc(=O)n(Cc2ccccc2)c1=O: 96.1%
COc1cc2ncnc(Nc3ccc(F)c(Cl)c3)c2cc1OCCCN1CCOCC1: 98.3%
O=C(CCCc1ccc(-c2ccccc2F)cc1)Nc1ccc(O)cc1: 93.1%
Oc1ccc(-c2nc(-c3ccncc3)c(-c3ccc(F)cc3)[nH]2)cc1: 90.6%
CC(C)[C@H](CO)Nc1nc(Nc2cc(N)cc(Cl)c2)c2ncn(C(C)C)c2n1: 97.5%
Nc1[nH]nc2nc3ccccc3nc12: 92.1%
C#Cc1cccc(Nc2ncnc3cc(OCCOC)c(OCCOC)cc23)c1: 87.5%
Cc1ccc(Nc2nccc(N(C)c3ccc4c(C)n(C)nc4c3)n2)cc1S(N)(=O)=O: 27.2%
CCOC(=O)c1c(C)[nH]c(/C=C2\C(=O)Nc3ccccc32)c1C: 79%
O=C(Nc1cccc(Nc2cc(Nc3cccc(C(F)(F)F)c3)ncn2)c1)C1CC1: 99.4%
CN(C)c1ccc(C=C2C(=O)Nc3ccccc32)cc1: 92%
Nc1ncnc2n[nH]c(Nc3ccc(F)cc3)c12: 87.3%
NCCNc1ncc(C(N)=O)c(Nc2cccc(C(F)(F)F)c2)n1: 87.5%
Cc1nc(-c2ccccc2)c(-c2ccncc2)o1: 79.4%

Series 3
Target: Probable WRKY transcription factor 50, DNA-binding domain (WRKY50, Arabidopsis thaliana, UniProt Q8VWQ5, residues 99-173)
Technique: DNA-protein interaction ELISA
Form: double-stranded DNA, one strand shown
Matrix: in vitro, bacterial lysate
Concentration: not given
Notes: whole dsDNA probe, crude lysate protein
Relative to: highest signal in screen
Reading: higher = stronger binding
Endpoint: relative absorbance
Residues (chain): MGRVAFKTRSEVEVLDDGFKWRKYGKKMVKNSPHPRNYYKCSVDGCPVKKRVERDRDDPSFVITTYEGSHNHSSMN
AAAAAATGTATTCGTGTCCACTCCATAAAA: 11.5 % of maximum
AAAAAAGTACATGCGTAGATAATGTTAAAA: 34.8 % of maximum
AAAAAATCACAATACCTTCTCGTCATAAAA: 33.9 % of maximum
AAAAAAACTCTAGGTCAATATTATTCAAAA: 64.2 % of maximum
AAAAAATAGTACCGCTAATGGCTGACAAAA: 27.4 % of maximum
AAAAAAGCTCGTCTCCGCCTCCTGCTAAAA: 32.6 % of maximum
AAAAAAGCTTCTCATGTTGTCTTAGGAAAA: 20.4 % of maximum
AAAAAAAGTATCAAAGCCTAGGGCTGAAAA: 10.5 % of maximum

Series 4
Structure (SMILES): CN(C)CC#Cc1ccc(OCCCc2sc(N3CCc4cccc(C(=O)Nc5nc6ccccc6s5)c4C3)nc2C(=O)O)c(F)c1
Concentration: 1 µM
Endpoint: remaining binding
STE20/SPS1-related proline-alanine-rich protein kinase (STK39, Homo sapiens, UniProt Q9UEW8); cell-free assay, competition with immobilised ligand: 100%
Tyrosine-protein kinase Lyn (LYN, Homo sapiens, UniProt P07948); cell-free assay, competition with immobilised ligand: 100%
Serine/threonine-protein kinase N2 (PKN2, Homo sapiens, UniProt Q16513); cell-free assay, competition with immobilised ligand: 100%
Calcium/calmodulin-dependent protein kinase kinase 2 (CAMKK2, Homo sapiens, UniProt Q96RR4); cell-free assay, competition with immobilised ligand: 100%
Serine/threonine-protein kinase SIK1 (SIK1, Homo sapiens, UniProt P57059); competition binding: 100%

For quick reference, copied from above (series 1):
L45K: -1.35 natural log
A49K: -1.47 natural log
A40W: -1.31 natural log
L59P: -1.37 natural log
